Results collected from several papers.
A part holds a random share of what one study measured. Positions count from the first letter of the parent shown.
Chain of UniProt P62256 (whole entry, looked up): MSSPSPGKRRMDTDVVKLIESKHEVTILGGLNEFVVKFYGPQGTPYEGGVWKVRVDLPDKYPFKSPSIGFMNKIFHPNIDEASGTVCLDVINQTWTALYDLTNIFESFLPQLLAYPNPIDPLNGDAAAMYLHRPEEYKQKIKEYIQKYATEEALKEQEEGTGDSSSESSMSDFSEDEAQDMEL
Chain of UniProt Q15819 (whole entry, looked up): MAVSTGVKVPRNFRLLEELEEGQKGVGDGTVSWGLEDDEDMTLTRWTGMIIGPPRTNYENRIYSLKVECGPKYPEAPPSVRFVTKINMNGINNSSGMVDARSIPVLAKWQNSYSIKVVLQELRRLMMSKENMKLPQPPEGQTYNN
Chain of UniProt Q8WVN8 (whole entry, looked up): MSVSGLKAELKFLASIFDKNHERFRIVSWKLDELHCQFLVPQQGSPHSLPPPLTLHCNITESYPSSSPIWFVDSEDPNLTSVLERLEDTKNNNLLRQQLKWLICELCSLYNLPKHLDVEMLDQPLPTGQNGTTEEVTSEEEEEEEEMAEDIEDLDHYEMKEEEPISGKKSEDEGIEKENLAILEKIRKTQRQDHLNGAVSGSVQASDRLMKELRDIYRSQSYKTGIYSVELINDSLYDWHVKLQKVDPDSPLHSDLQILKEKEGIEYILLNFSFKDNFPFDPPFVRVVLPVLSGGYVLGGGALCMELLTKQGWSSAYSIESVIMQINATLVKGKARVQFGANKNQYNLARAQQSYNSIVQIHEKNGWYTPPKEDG
Chain of UniProt Q13404 (whole entry, looked up): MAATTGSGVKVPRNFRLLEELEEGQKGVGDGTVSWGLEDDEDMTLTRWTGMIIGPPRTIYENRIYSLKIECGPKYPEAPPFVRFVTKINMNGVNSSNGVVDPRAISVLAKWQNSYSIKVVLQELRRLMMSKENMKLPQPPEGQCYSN
Chain of UniProt Q5VVX9 (whole entry, looked up): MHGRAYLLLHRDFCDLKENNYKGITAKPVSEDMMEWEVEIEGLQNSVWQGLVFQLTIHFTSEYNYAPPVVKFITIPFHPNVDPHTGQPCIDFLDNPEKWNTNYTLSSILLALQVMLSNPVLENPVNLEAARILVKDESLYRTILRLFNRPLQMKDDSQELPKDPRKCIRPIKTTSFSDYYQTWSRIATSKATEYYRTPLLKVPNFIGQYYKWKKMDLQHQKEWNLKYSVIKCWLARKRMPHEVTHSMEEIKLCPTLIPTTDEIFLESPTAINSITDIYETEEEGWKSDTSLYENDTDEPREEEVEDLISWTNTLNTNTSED
Chain of UniProt Q96LR5 (whole entry, looked up): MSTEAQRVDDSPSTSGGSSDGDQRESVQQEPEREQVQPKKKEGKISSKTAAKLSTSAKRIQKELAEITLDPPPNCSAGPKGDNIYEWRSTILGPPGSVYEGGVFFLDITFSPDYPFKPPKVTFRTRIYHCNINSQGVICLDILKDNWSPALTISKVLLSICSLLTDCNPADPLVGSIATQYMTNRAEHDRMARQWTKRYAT
Chain of UniProt O14933 (whole entry, looked up): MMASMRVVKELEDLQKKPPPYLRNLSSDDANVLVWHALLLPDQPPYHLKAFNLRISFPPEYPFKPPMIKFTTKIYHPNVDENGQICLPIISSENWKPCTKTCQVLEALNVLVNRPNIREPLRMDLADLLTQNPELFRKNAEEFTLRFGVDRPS
Chain of UniProt P61088 (whole entry, looked up): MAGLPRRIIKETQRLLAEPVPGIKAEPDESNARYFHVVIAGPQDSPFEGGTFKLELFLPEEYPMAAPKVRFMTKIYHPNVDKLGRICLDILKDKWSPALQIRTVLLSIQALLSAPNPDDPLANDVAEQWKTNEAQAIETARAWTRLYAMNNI
Chain of UniProt P60604 (whole entry, looked up): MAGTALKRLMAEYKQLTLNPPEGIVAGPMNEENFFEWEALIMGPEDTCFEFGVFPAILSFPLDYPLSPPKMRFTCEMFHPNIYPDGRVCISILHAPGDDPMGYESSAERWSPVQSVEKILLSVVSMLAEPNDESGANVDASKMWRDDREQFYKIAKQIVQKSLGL
Chain of UniProt P49427 (whole entry, looked up): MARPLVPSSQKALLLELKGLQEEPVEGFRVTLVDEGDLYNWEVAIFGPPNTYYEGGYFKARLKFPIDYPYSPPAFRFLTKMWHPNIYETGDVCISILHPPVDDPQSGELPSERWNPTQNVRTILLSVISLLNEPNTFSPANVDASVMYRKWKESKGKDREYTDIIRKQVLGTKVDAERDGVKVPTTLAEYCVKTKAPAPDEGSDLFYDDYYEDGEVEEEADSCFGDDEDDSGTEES
Chain of UniProt P51965 (whole entry, looked up): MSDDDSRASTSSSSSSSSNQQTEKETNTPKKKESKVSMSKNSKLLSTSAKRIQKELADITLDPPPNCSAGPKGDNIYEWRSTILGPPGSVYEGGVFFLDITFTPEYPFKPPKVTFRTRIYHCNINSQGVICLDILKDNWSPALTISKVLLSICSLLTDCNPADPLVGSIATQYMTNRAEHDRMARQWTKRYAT

Block 1
Target: RNA binding protein fox-1 homolog 2, RRM domain, GST-SBP tag (RBFOX2, Homo sapiens, UniProt O43251-10, residues 100-194)
Technique: RNA Bind-n-Seq
Molecule type: RNA
Sample: in vitro
Concentration: 365 nM
Setting: natural RNA segment, single round, ends assumed
Baseline: no-protein control
Direction: higher = stronger binding
Constant ends, left off below: GGGAGUUCUACAGUCCGACGAUC … UGGAAUUCUCGGGUGCCAA
Target sequence (chain): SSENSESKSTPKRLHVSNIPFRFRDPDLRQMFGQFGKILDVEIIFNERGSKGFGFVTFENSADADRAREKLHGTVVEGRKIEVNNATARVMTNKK
Strand	RBNS enrichment (R)
AUAGGAGUUUGACAAAAUGAAUUGUGGUUAUAAAACGAAUUUGCUUUUUUGUUGUUUUGUUUUUCUUUUUUGGCCUAAGGAAGAAAGCUGUGAUAAAUUUCAAAUUUGCA	1.37
AGGGUGAACAGCAUGGCGGCAUCUGGGCCCCACAGUAACACCUAGUGGCAACCUUGCCUUCCUGACCUCAGCGGCCCUUCUGUUCCAUCCUCUGUGGGCAGGGGUGUGGC	1.83
CAAUAUUUGAACUUUUAACUCUUGACAUUGAAAAAAAAGGAUUUGGAGAAAUUACCAAGAUUUUAACAUCUAUAAAAUUGGUAUGUCUUAAAAGUUAUUUCAAAAAUCCU	0.65
UCAGUGACACCGUCCUGCCUAACCAGAUGCGGUCAGCCUCUUCACACCCACCUGGCUUGCAUCCCCCAUCCCUUGUUCACACGCCCUGAUUCACGGUGAGACAUUUUGCC	0.916
CCAGACAACCACAAUGCCAGGUACGGGGUCUCUGAGCAGCAGCCAGUGCAGAUCCCCAUUUGCAGUAAGAUUGUACCUCAGCGGUACAAUUCCUCACCAAGGAAGUGGCU	0.389
UAAACUUACACUAAAGGAUUCAUCAAAUCAUCUUGUUCAGAUGGCUCAGGAUUGUAUUUAUUUUGCUUACCCCGUGCUCUUGGGUUCUAUAGUAUUUCUAUAAUUAUGUA	0.378
GGUGGUAUGGCCAUAGACCAGAGCAACACAUUGAAAUGUAUACAGAUGUACUAGCUAAAGUCUCUUUAUGUGUCAGUAUUAAGAGUAAUAUGUAGCCAGAUUACUUAAAU	0.613
UAAUUUAACGUGGAAUUCCUUCAUUUCAUAAGAACCUCAAAAUAAUGGUGAUACAUUCUAGCCUUAAGACAUUUGAAUUGCCGGUUGUUGAGGUGAAUUUUGUUUGUCAU	0.937
ACUUUGCGUCGUUUCUGUACUUCUUUAAAACAACUAAGCCACCGUUCGCAGCUGAGUUGUGAUACUGACCUGGUAAUCAGACCAAAGUACUGUCCCGGCUGGUUUUAUCU	0.245
UCCGUGCGUCAGUGGCUGGCAGAAGAAAGACGCCUUUGUCUGUGUAAUGCCUCUGUUAACUUUGCCAGGAGCUUUGAGAGUCUGCCCUCUCCCACCCUUCCUGAACCAUG	0.357
CCACUCUCUGUGGGGUCCUGCGUACCUACAGGGUGGCCUGAAAACAGACUCCACACGUGGAAACAAGACUGGGUUUCUCAGCUUCCGUGUCAAGUCAGCCAGAGGAAAGA	0.297
ACACAUACAUGUCACAUUUAGCUGUGCUCAGAAGGGCUAUCAUCAUCCUACAACUCACAUUAGAGAACAUCCUGGCUUUUGAGCACUUUUCAAACAAUCAAGUUGACUCA	0.323

Block 2
Substance: RNF167 RING domain (UniProt Q9H6Y7)
Technique: yeast two-hybrid
Sample: yeast
Setting: mostly zero background
Baseline: not given
Direction: higher = stronger interaction
target	lacZ reporter activity
UBE2V1 UBC core domain (UniProt Q13404)	0
UBE2N UBC core domain (UniProt P61088)	9370
CDC34 UBC core domain (UniProt P49427)	0
UBE2V2 UBC core domain (UniProt Q15819)	0
UBE2E2 UBC core domain (UniProt Q96LR5)	0
UBE2H UBC core domain (UniProt P62256)	0
UBE2U UBC core domain (UniProt Q5VVX9)	2500
UBE2Q2 UBC core domain (UniProt Q8WVN8)	0
UBE2L6 UBC core domain (UniProt O14933)	0
UBE2E1 UBC core domain (UniProt P51965)	12300
UBE2G2 UBC core domain (UniProt P60604)	8830

Block 3
Target: ABI1, truncated, D143A, DHFR fusion (Arabidopsis thaliana)
Technique: DHFR PCA, deep sequencing
Sample: yeast
Setting: methotrexate growth selection, single substitutions
With: (+)-ABA 0.39 µM
Baseline: wild-type fitted maximum
Direction: higher = stronger binding
Starting sequence: PYL1, truncated, DHFR fusion (Arabidopsis thaliana); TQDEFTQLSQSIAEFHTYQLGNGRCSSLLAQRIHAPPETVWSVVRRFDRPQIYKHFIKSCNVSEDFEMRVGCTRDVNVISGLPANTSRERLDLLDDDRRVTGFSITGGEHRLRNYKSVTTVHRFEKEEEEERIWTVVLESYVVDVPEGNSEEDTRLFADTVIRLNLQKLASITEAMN; partner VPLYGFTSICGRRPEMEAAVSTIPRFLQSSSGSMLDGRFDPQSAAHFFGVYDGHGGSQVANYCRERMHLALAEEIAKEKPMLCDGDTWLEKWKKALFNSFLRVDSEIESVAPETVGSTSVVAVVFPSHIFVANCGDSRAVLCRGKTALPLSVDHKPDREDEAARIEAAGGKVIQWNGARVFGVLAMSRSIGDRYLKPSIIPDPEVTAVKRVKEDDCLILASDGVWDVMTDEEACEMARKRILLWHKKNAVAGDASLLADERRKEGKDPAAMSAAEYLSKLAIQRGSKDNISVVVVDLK
Variant	relative binding score [%]
L138Q	-7.12
Y53V	-5.18
N22T	50.3
D75C	44.6
R69L	9.15
G23K	27.9
P36K	29.9
Y18V	8.33
D153Y	0.372
G148A	1.56
V143Y	-16.4
Q51T	-2.92
E152S	22.9
I105W	-13.8
L156G	-3.81
C60M	-13.7
S150W	-4.09
V40Q	-16.3
E131I	27.4
S27P	-0.667
R32A	27.7
V70G	-7.02
A170C	18.2
D95K	-11.6
D75L	58.5

Block 4
Target: RING finger protein unkempt homolog, zinc fingers 1-6, GST-SBP tag (UNK, Homo sapiens, UniProt Q9C0B0, residues 30-357)
Chain of UniProt Q9C0B0 (30-357, looked up): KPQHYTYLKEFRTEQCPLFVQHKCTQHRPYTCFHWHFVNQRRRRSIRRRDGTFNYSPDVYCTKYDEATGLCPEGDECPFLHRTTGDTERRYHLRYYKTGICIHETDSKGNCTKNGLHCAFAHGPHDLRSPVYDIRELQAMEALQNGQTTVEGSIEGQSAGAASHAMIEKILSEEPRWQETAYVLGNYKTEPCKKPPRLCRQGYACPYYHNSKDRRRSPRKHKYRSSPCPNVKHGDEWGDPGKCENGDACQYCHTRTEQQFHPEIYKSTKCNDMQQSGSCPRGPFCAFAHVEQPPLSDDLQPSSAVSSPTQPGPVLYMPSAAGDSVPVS
Technique: RNA Bind-n-Seq
Molecule type: RNA
Sample: in vitro
Concentration: not given
Setting: RNA with constant flanks, human-mouse chimeric sites, ends assumed
Baseline: input RNA pool
Direction: higher = stronger binding
Constant ends, left off below: GGGAGUUCUACAGUCCGACGAUC … CAACAGAGGAUUGAGCAUCA
Strand	bound/input enrichment [ratio]
ACCAUUUUCGCGGUUCAAGGUUUUGUGGUAGUUCACUUACGGUAUUAAAUUAUUAUUGCCCUUAGUUUAUAAUAAGGAUAAUUGCAUUUAAAGAGGUUACUGAAUGUUACUCUGAAACUU	0.487
AUAAAGGCCAUGUUGAGUGGUCCAGGUCAGUUUGCUGAGAAUGAAACCAACGAGGUCAAUUUUAGAGAGAUCCCCUCACAUGUGCUAUCGAAAGUAUGCAUGUAUUUUACCUACAAGGUC	0.177
CAGCCUCAGAGCCCAGACUUCCUGGAUAUUACCAACCCUAAAGCGGUAUUAGAAAACGCAUUGAGAAACUUCGCCUGUCUGACGACUGGAGAUGUGAUUGCUAUCAACUACAAUGAGAAG	0.357
AAUGUUCAUAUUUUGAGUGAAUAAAUGAAGCUAAAAUGUCUGCUUUUGGUACAACACGCAUUAAUAAAAGGUUAAGUUUUGUUUUCCACUGAAGUACUAUUUAACAUCUCAGAAAAAAAC	0.163
UACUCAACUUUCUUUCCACAUUUUGAAUUCCAAGACAUUAUUCCUCCAGAUGACUUCCUAACUAGUGAUGAAGAGCAAGAUUUGGUUUUAUUUGGAACUAUGAGAGGACAAGUUGUUGGA	0.26
UUGGAAGGACCAGAGCCUAAUCAACUGAAACCAUUAGUCAUACAGGCUAUGCCCACCCUAAUAGAACUAAUGAAAGACCCCAGUGUAGUUGUUCGAGAUACAGCUGCAUGGACUGUAGGC	1.16
ACUCAGAGAUCCACCUCCCAAAGUGCUGGGAGUAAAGGUGUGGCCACUCAAUUCUCCUUGAUGGAUAUAUAUUUUUUUUAAUAUGAAUGAACUCUUGCGUCCAGGGAAGAAAGAUUUGUU	0.307
AAAGAACCUCUCUCUGAUGAAGAUGAGGAAGACAAUGAUGAUGUUGAACCCAUUUCUGAAUUUAGAUUUGUGCCCAGUGAUAAGUCAGCGUUGGAGGCGAUGUUCACAGCAAUGUGUGAG	0.71
UUACCCGAAAAUGAAGAUGAGCUGGAGAGCACCAACAGGCGCUACACCAAGAGGGACUGCAGCACUUUCCUCAGAACUAGUGAGACGGGCAUCGUGGACCAGGUCAUGGUAACUCUCAAC	0.148
GCUGGAUCUUCUAAAUACCAGUGGGACAUUAUGAAAUCCCUUGGGCUCUCUGAUGACGACAUAGUGAAGUUUUCUGAAGCAGAGCACUGGCUUGAUUAUUUCCCACCACUGGCCGUUCAG	0.151
GCAGGAUCUUCUAAGUACCAGUGGGGCAUUAUGAAAUCCCUUGGGCUGUCUGAUGAAGACAUAGUGAAGUUUUCUGAAGCAGAGCACUGGCUUGAUUAUUUCCCACCACUGGCCGUUCAG	0.125

Block 5
Target: MAFF, bZIP domain (human)
Technique: DHFR protein complementation
Sample: yeast
Setting: single substitutions, most at no-binding floor
Baseline: wild-type JUN-FOS pair
Direction: higher = stronger binding
Starting sequence: JUN, bZIP domain (human); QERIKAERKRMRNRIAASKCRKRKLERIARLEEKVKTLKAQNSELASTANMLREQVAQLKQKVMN; partner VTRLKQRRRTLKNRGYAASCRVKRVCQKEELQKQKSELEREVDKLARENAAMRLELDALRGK
Variant	binding fitness [natural log]
L45W	-1.51
L59G	-1.4
T48G	-1.47
L52V	-1.37
L45K	-1.5
S47C	-1.43
I28A	-1.38
E32D	-1.46
A46W	-1.51
L45G	-1.53
A46T	-1.38
E33N	-1.55
E32Y	-1.44
S47V	-1.39
R53G	-1.33
N42A	-1.03
L52K	-1.47
R53M	-1.53
E44W	-1.46
L45S	-1.52
R53A	-1.47

Block 6
Target: CCNF, cyclin fold, Cln2 fusion (human)
Technique: yeast growth competition, sequencing
Sample: yeast
Setting: weak parent motif
Baseline: not given
Direction: higher = stronger binding
Starting sequence: FZR1 docking peptide (human); QDYERRLLRQIVI
Variant	normalised enrichment score
ADYERRLLRQIVI [Q1A]	0.791
QDYERRLLRAIVI [Q10A]	0.534
QDYEKRLLRQIVI [R5K]	0.261
QDYEARLLRQIVI [R5A]	0.606
QDYERRLLRQAVI [I11A]	1.56
QDYEARALRQIVI [R5A L7A]	0.47
QDYERALLRQIVI [R6A]	1.35
QDYARRLLRQIVI [E4A]	2.07
QDAERRLLRQIVI [Y3A]	0.906

Repeated from above (block 5):
Variant	binding fitness [natural log]
E33N	-1.55
L52K	-1.47
E32D	-1.46
T48G	-1.47
L45G	-1.53
I28A	-1.38
R53G	-1.33
E32Y	-1.44
S47C	-1.43
L59G	-1.4
S47V	-1.39
